Assay results pooled from the literature.
Lines come from different studies, so protocols differ.
Target: Dual specificity mitogen-activated protein kinase kinase 7 (MAP2K7, Homo sapiens, UniProt O14733)

With `Cc1ccc(-c2c(/C=C(\C#N)C(=O)NC(C)C)n(CCCO)c3ncnc(N)c23)cc1` the remaining binding was 70% (cell-free assay, competition with immobilised ligand; 1 µM).
`CNC1C[S+]2CC[S+]3CC[S+](C1)[Ru-4]321([N]=C=S)[n]2c3ccc(OC)cc3c3c4c(c5cc(F)c[n+]1c5c32)C(=O)NC4=O` (stereo not drawn) gave a remaining binding of 100% (KinomeScan; 0.1 µM; relative to: untreated).
`COc1c(OCCCN2CCOCC2)ccc2c1N=C(NC(=O)c1cnc(N)nc1)N1CCN=C21` gave a remaining activity of 77% (kinase activity, inhibitor; 1 µM; relative to: untreated control).
`Nc1ncc2c(n1)-c1c([nH]c3ccc(C4=CCOCC4)cc13)CCC2` has a remaining binding of 81% (binding, competition with immobilised ligand; 1 µM).
`COc1cc(Nc2nccc(-c3cnn4nc(OC)ccc34)n2)cc(C(F)(F)F)c1` has a remaining binding of 77% (binding, competition with immobilised ligand; 1 µM).
`C=CC(=O)N1CCc2ccc(-n3c(=O)ccc4cnc5ccc(-c6cnn(C)c6)cc5c43)cc21` gave a remaining binding of 98% (KINOMEscan; 1 µM; relative to: DMSO control).
The remaining activity of `COc1cc(Nc2nc(C)cc(-c3cnn4nc(OC)ccc34)n2)cc(C(F)(F)F)c1` is reported as 99% (inhibitor; 1 µM, MKK7; relative to: control).
The remaining activity of `CNC(=O)C[C@H](Cc1ccc(C#N)cc1)NC(=O)c1cc(-c2ccc(CN[C@H](C)c3ccc(C)cc3)o2)ccc1Cl` is reported as 91% (enzyme activity, KinaseProfiler panel; 1 µM).
For `CNC(=O)C1CCN(c2cc(C)c(F)cc2NC(=O)c2ccc(-c3cc(O)ccc3C)c(C)c2)CC1`, the remaining binding was 93% (binding, competition with immobilised ligand; 1 µM).
`CS(=O)(=O)Nc1cccc(-c2csc3cnc(Nc4ccc(N5CCN(CCCCCOc6cccc7c6C(=O)N(C6CCC(=O)NC6=O)C7=O)CC5)cc4)nc23)c1` (stereo not drawn) gave an inhibition of -22.4% (probe labelling, inhibitor, KiNativ chemoproteomics; MOLT-4; 1 µM).
`O=C=[N][Ru-4]123([n]4c5ccc(O)cc5c5c6c(c7cc(F)c[n+]1c7c54)C(=O)NC6=O)[S+]1CC[S+]2CC[S+]3CC1` (stereo not drawn) has a remaining activity of 63% (enzyme activity; 100 nM, human enzyme, added: 10 µM ATP; relative to: untreated).
The remaining signal of `Cc1cnc2nc1Nc1cccc(c1)COC/C=C/COCc1cc(ccc1OCCN1CCOCC1)N2` is reported as 78% (cell-free assay; 0.1 µM).
The remaining binding of `COc1c(Cl)cccc1Nc1c(-c2ccncc2C#C[C@@]2(C)CCCN2C(=O)/C=C/CN(C)C)[nH]c2c1C(=O)NCC2` is reported as 95% (binding, competition with immobilised ligand; 3 µM).
With `Cc1nc2c(F)cc(-c3nc(Nc4ccc(CNC(=O)CCCCCCC(=O)NO)cc4)ncc3F)cc2n1C(C)C` the inhibition was 62% (kinase activity; 1 µM).
With `COc1ccc(NC(=O)Nc2ccc3c(c2)C(=O)N(C(C)CO)CC(C)C(CN(C)Cc2ccc4c(c2)OCO4)O3)cc1` (stereo not drawn) the remaining activity was 121% (kinase activity, KinaseProfiler; 0.03 µM, species human; relative to: control).
With `CC(C)=CC1OC(C)(C)C2C=C3C(=O)C(Cl)=CC(O)C3C3C(O)C4OC4C(=O)C132` (stereo not drawn) the remaining binding was 63% (cell-free assay, competition with immobilised ligand; 10 µM).
With `C=CC(=O)N1CCCC(n2c(=O)c3ncccc3n(Cc3ccc(Oc4ccccc4)cc3)c2=O)C1` (stereo not drawn) the remaining binding was 74% (cell-free assay, competition with immobilised ligand; 1 µM).
`CCN1CCN(Cc2ccc(C(=O)Nc3ccc(C)c(NCc4cnc5[nH]ccc5c4OC)c3)cc2C(F)(F)F)CC1` has a remaining binding of 20% (binding, competition with immobilised ligand; 1 µM).

A few entries again:
With `Cc1ccc(-c2c(/C=C(\C#N)C(=O)NC(C)C)n(CCCO)c3ncnc(N)c23)cc1` the remaining binding was 70% (cell-free assay, competition with immobilised ligand; 1 µM).
`CNC1C[S+]2CC[S+]3CC[S+](C1)[Ru-4]321([N]=C=S)[n]2c3ccc(OC)cc3c3c4c(c5cc(F)c[n+]1c5c32)C(=O)NC4=O` (stereo not drawn) gave a remaining binding of 100% (KinomeScan; 0.1 µM; relative to: untreated).
